Results pooled from the literature.
Numbered parts are unrelated; each lists some results of a single study. ± marks the error that the study gave.
Sequence of UniProt P08581 (whole entry, looked up): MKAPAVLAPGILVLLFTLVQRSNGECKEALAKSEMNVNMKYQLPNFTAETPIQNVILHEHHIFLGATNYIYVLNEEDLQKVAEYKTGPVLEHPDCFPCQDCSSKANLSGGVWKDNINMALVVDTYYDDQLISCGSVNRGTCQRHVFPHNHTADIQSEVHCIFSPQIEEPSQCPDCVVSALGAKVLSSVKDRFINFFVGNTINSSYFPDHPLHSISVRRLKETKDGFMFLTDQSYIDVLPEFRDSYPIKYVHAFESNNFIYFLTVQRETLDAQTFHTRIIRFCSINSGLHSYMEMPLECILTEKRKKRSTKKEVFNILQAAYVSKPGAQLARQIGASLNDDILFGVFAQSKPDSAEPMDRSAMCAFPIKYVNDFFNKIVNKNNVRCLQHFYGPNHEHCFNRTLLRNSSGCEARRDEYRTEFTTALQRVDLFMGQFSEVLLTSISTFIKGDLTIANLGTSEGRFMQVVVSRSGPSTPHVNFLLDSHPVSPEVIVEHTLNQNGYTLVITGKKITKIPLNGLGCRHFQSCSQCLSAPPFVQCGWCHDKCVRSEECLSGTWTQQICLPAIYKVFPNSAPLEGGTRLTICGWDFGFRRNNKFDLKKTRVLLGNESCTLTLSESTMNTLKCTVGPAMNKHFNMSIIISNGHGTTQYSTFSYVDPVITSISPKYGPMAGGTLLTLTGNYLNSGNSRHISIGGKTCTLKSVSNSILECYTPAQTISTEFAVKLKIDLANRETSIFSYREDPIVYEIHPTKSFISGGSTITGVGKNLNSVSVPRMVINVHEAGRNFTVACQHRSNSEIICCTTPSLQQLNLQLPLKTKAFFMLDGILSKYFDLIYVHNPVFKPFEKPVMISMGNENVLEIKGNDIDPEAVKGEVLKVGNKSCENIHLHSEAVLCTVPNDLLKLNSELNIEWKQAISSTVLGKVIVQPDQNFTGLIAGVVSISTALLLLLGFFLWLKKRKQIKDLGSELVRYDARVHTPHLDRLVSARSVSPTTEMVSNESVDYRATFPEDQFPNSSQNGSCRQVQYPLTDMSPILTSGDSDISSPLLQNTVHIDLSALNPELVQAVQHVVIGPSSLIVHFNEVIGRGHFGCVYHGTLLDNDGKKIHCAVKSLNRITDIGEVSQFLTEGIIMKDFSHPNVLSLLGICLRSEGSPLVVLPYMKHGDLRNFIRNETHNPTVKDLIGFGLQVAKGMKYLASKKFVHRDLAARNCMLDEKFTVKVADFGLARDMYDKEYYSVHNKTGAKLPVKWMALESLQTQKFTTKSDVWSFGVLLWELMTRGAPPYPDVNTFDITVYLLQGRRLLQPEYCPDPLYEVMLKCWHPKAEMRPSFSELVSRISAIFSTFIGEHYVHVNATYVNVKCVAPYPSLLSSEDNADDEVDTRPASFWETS
Sequence of UniProt Q15418 (whole entry, looked up): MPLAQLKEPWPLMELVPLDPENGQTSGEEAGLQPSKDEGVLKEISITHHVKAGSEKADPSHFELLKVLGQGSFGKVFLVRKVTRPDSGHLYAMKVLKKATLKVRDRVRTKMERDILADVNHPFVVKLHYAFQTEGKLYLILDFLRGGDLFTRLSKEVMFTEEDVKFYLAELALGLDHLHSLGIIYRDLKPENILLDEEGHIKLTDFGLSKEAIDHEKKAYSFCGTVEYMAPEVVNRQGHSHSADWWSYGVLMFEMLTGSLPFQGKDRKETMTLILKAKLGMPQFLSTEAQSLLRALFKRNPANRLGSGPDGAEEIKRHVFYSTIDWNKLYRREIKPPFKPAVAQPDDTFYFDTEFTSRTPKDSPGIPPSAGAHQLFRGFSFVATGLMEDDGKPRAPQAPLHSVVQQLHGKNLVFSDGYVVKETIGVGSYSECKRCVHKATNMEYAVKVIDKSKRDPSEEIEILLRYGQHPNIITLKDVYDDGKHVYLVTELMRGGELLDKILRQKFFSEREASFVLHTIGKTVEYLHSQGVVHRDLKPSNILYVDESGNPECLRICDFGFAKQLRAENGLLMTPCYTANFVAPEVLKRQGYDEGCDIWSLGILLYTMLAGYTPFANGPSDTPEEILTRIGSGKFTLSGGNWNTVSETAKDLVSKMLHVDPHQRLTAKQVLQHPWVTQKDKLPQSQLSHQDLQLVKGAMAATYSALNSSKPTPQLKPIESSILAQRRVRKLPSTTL
Sequence of UniProt P07947 (whole entry, looked up): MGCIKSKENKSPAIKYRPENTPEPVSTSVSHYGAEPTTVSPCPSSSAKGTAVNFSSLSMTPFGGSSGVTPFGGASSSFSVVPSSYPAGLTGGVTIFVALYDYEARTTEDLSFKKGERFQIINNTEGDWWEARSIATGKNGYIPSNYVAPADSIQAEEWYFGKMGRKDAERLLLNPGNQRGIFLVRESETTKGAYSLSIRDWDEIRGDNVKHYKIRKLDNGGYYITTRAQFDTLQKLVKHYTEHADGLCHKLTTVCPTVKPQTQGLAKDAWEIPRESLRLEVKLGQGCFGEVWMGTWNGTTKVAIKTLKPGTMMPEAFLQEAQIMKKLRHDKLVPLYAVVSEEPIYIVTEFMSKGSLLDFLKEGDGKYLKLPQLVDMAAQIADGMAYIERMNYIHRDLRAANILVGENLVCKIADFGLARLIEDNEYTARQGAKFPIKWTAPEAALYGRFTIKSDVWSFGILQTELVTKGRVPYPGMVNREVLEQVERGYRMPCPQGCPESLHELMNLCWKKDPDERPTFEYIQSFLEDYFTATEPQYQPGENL
Sequence of UniProt Q8WU08 (whole entry, looked up): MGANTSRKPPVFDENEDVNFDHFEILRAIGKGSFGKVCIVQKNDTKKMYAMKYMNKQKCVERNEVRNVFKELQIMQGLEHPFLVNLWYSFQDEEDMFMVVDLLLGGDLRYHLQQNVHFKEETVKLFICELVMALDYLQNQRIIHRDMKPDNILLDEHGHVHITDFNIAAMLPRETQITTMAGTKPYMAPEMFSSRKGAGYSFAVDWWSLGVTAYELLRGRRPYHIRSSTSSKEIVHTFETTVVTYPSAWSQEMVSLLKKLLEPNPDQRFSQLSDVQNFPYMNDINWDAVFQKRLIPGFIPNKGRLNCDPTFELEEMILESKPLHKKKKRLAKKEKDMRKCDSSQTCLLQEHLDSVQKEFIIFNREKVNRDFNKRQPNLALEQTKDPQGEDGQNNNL
Sequence of UniProt Q15835 (whole entry, looked up): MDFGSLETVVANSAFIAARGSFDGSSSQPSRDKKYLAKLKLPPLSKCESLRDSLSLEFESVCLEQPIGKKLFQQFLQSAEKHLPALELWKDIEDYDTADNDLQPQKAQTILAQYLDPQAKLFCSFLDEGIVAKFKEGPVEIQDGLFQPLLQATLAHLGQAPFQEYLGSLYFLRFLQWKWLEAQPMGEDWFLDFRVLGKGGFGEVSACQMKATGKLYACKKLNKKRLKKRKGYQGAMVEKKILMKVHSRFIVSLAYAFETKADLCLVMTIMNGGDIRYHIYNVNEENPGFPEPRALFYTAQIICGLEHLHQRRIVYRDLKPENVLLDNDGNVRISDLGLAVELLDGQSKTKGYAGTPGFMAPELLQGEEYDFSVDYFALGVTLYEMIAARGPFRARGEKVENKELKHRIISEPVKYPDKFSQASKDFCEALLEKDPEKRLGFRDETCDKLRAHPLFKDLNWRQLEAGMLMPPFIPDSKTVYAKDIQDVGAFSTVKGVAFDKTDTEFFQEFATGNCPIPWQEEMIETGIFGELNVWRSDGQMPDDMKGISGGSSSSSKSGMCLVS

Sample 1
Compound: CO[C@@H](C)c1c(Nc2ccc([C@@H](N(C)C(=O)C3CCS(=O)(=O)CC3)C(F)(F)F)cc2)cnc2cc(Cl)nn12
Tested at: 1 µM
Hepatocyte growth factor receptor (MET, Homo sapiens, UniProt P08581); cell-free assay, competition with immobilised ligand — remaining binding: 85%.
The remaining binding was 90% (Fibroblast growth factor receptor 3 (FGFR3, Homo sapiens, UniProt P22607); cell-free assay, competition with immobilised ligand).
The remaining binding was 100% (Activin receptor type-1-like (ACVRL1, Homo sapiens, UniProt P37023); cell-free assay, competition with immobilised ligand).
The remaining binding was 85% (Activin receptor type-1 (ACVR1, Homo sapiens, UniProt Q04771); cell-free assay, competition with immobilised ligand).
For Serine/threonine-protein kinase 32A (STK32A, Homo sapiens, UniProt Q8WU08); cell-free assay, competition with immobilised ligand: remaining binding read 100%.
For Protein kinase C eta type (PRKCH, Homo sapiens, UniProt P24723); cell-free assay, competition with immobilised ligand: remaining binding read 78%.
Rhodopsin kinase GRK1 (GRK1, Homo sapiens, UniProt Q15835); cell-free assay, competition with immobilised ligand — remaining binding: 86%.
Calcium/calmodulin-dependent protein kinase kinase 1 (CAMKK1, Homo sapiens, UniProt Q8N5S9); cell-free assay, competition with immobilised ligand — remaining binding: 98%.
The remaining binding was 100% (Casein kinase I isoform delta (CSNK1D, Homo sapiens, UniProt P48730); cell-free assay, competition with immobilised ligand).
For Cyclin-dependent kinase 4, with cyclin D3 (CDK4, Homo sapiens, UniProt P11802); cell-free assay, competition with immobilised ligand: remaining binding read 100%.
It gave 100% for remaining binding (Tyrosine-protein kinase ABL1, phosphorylated (ABL1, Homo sapiens, UniProt P00519, F317I); binding).
The remaining binding was 100% (Tyrosine-protein kinase Yes (YES1, Homo sapiens, UniProt P07947); cell-free assay, competition with immobilised ligand).
It gave 100% for remaining binding (Tyrosine-protein kinase Fes/Fps (FES, Homo sapiens, UniProt P07332); cell-free assay, competition with immobilised ligand).
For RAC-alpha serine/threonine-protein kinase (AKT1, Homo sapiens, UniProt P31749); cell-free assay, competition with immobilised ligand: remaining binding read 89%.
Calcium/calmodulin-dependent protein kinase kinase 2 (CAMKK2, Homo sapiens, UniProt Q96RR4); cell-free assay, competition with immobilised ligand — remaining binding: 100%.
The remaining binding was 84% (Mitogen-activated protein kinase kinase kinase 7 (MAP3K7, Homo sapiens, UniProt O43318); cell-free assay, competition with immobilised ligand).
For Ribosomal protein S6 kinase alpha-1, N-terminal kinase domain (RPS6KA1, Homo sapiens, UniProt Q15418); cell-free assay, competition with immobilised ligand: remaining binding read 65%.
Ribosomal protein S6 kinase alpha-4, C-terminal kinase domain (RPS6KA4, Homo sapiens, UniProt O75676); cell-free assay, competition with immobilised ligand — remaining binding: 100%.

Sample 2
Target: PAS domain-containing serine/threonine-protein kinase (PASK, Homo sapiens, UniProt Q96RG2)
Sequence of UniProt Q96RG2 (whole entry, looked up): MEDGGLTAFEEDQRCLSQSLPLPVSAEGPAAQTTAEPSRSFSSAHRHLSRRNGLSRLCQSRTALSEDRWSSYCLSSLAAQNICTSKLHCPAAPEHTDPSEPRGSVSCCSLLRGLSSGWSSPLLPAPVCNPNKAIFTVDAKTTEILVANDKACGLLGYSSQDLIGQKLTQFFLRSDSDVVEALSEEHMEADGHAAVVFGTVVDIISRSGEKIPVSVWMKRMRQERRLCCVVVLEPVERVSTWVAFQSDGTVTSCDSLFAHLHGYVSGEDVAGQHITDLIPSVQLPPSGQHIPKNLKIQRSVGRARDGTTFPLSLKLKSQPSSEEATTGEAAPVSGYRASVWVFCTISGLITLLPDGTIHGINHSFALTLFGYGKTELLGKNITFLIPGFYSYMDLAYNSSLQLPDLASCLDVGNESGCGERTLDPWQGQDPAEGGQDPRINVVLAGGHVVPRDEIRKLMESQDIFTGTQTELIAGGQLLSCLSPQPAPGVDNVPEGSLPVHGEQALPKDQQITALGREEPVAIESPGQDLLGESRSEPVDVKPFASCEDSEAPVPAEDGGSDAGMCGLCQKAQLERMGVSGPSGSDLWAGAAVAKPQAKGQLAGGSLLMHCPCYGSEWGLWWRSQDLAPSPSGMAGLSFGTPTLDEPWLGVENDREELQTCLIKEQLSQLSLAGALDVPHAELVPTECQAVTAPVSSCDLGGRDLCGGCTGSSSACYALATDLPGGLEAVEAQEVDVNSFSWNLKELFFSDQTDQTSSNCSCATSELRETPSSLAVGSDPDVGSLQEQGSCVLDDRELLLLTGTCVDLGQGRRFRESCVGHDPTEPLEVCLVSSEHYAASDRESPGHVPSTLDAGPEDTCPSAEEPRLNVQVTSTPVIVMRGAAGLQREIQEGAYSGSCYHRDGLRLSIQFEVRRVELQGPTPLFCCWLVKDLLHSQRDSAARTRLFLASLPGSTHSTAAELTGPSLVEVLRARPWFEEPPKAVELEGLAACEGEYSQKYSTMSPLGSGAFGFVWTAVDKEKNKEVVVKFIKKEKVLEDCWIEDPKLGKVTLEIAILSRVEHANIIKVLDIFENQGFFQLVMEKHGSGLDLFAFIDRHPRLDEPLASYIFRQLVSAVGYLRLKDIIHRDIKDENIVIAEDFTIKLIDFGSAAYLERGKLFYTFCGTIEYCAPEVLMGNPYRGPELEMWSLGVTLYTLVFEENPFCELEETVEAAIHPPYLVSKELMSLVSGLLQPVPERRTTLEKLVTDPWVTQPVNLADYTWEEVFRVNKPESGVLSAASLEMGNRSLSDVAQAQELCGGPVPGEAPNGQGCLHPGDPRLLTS
Effect on: enzyme activity
Mode: inhibitor
Tested at: 0.5 µM
Reference: control
`Cc1cccc(-c2[nH]c(C(C)(C)C)nc2-c2ccc3c(c2)OCO3)n1` has a remaining activity of 78.9%.
For `Nc1[nH]nc2nc3ccccc3nc12`, the remaining activity was 93.7%.
For `O=C(CCCc1ccc(-c2ccccc2F)cc1)Nc1ccc(O)cc1`, the remaining activity was 101%.
For `COc1ccc(CNC(=O)Nc2ncc([N+](=O)[O-])s2)cc1`, the remaining activity was 106%.
The remaining activity of `N#CC(C#N)=C(N)/C(C#N)=C/c1ccc(O)cc1` is reported as 82.9%.
For `COc1cc2ncnc(Nc3ccc(F)c(Cl)c3)c2cc1OCCCN1CCOCC1`, the remaining activity was 97.9%.
For `Nc1ncnc2n[nH]c(Nc3ccc(F)cc3)c12`, the remaining activity was 91.8%.
`C#Cc1cccc(Nc2ncnc3cc(OCCOC)c(OCCOC)cc23)c1` gave a remaining activity of 97.4%.
`Cc1nc(-c2ccccc2)c(-c2ccncc2)o1` gave a remaining activity of 98.1%.
`O=C1NC(=O)C(c2cn(CCCO)c3ncccc23)=C1c1cnccn1` gave a remaining activity of 97.1%.
With `O=C(O)c1ccc2c3c1cccc3c(=O)n1c3ccccc3nc21` the remaining activity was 106%.
The remaining activity of `NCCNc1ncc(C(N)=O)c(Nc2cccc(C(F)(F)F)c2)n1` is reported as 75.1%.
The remaining activity of `O=c1c2ccccc2[nH]c(=S)n1CCN1CCC(=C(c2ccc(F)cc2)c2ccc(F)cc2)CC1` is reported as 99%.
With `CN(C)c1ccc(C=C2C(=O)Nc3ccccc32)cc1` the remaining activity was 95%.
For `COc1ccc(OC)c2c(=S)c3ccccc3[nH]c12`, the remaining activity was 90.1%.

Sample 3
Organism: Sarcocystis neurona
Effect on: parasite growth
Tested at: 10 µM
Time: 96 h
Setting: second screen
Reference: untreated
`O=c1c(O[C@@H]2O[C@H](CO)[C@@H](O)[C@H](O)[C@H]2O)c(-c2ccc(O)c(O)c2)oc2cc(O)cc(O)c12`: “log2 fold change” 0.16.
`CC(C)(O)c1ccccc1CC[C@@H](SCC1(CC(=O)O)CC1)c1cccc(/C=C/c2ccc3ccc(Cl)cc3n2)c1` — result for “log2 fold change”: 0.39.
Under “log2 fold change”, `O=C1N[C@H](C(=O)O)CS1` is recorded as 0.00169.
Under “log2 fold change”, `COc1ccc(-c2oc3c(CC=C(C)C)c(O[C@@H]4O[C@H](CO)[C@@H](O)[C@H](O)[C@H]4O)cc(O)c3c(=O)c2O[C@@H]2O[C@@H](C)[C@H](O)[C@@H](O)[C@H]2O)cc1` is recorded as 0.21.
Under “log2 fold change”, `CC(C)NCC(O)COc1ccc(COCCOC(C)C)cc1` (stereo not shown) is recorded as 0.26.
`Nc1ccn([C@@H]2O[C@H](CO)[C@@H](O)[C@@H]2O)c(=O)n1`: “log2 fold change” 0.69.

Other studies, line by line
The serum glucose of `OCCN1CCN(CCCN2c3ccccc3Sc3ccc(Cl)cc32)CC1` is reported as 164 ± 12.4 mg/dL (mouse, serum; dose not given).

For quick reference, copied from above (sample 2):
`Cc1cccc(-c2[nH]c(C(C)(C)C)nc2-c2ccc3c(c2)OCO3)n1` has a remaining activity of 78.9%.
For `COc1ccc(CNC(=O)Nc2ncc([N+](=O)[O-])s2)cc1`, the remaining activity was 106%.
`Cc1nc(-c2ccccc2)c(-c2ccncc2)o1` gave a remaining activity of 98.1%.
With `CN(C)c1ccc(C=C2C(=O)Nc3ccccc32)cc1` the remaining activity was 95%.
For `COc1ccc(OC)c2c(=S)c3ccccc3[nH]c12`, the remaining activity was 90.1%.
For `Nc1ncnc2n[nH]c(Nc3ccc(F)cc3)c12`, the remaining activity was 91.8%.
